Measured values gathered from unrelated publications.
Lines come from different studies, so protocols differ.
Organism: Pseudomonas aeruginosa

CCOc1c(NC(=O)c2ccc(NC(=O)c3ccc(NC(=O)[C@H](Cc4c[nH]nn4)NC(=O)c4ccc(NC(=O)/C(C)=C/c5ccc(O)cc5)cc4)cc3)c(OC)c2O)ccc(C(=O)O)c1O — MIC (broth microdilution; ciprofloxacin-resistant): 4 µg/mL
CC[C@H](C)[C@H](NC(=O)[C@@H](CCCNC(=N)N)NC(=O)[C@H](CCCNC(=N)N)NC(=O)[C@@H]1CCCN1C(=O)[C@@H]1CCCN1C(=O)[C@H](CCCCN)NC(=O)[C@@H]1CCCN1C(=O)[C@H](CCCNC(=N)N)NC(=O)[C@@H]1CCCN1C(=O)[C@H](CC(C)C)NC(=O)[C@H](Cc1ccc(O)cc1)NC(=O)[C@@H]1CCCN1C(=O)[C@@H]1CCCN1C(=O)[C@H](CCCCN)NC(=O)[C@H](CC(=O)O)NC(=O)[C@@H](N)C(C)C)C(=O)N[C@@H](Cc1ccc(O)cc1)C(=O)N[C@@H](CC(N)=O)C(=O)N[C@H](CCCNC(=N)N)C(N)=O — MIC (broth microdilution; DSM 1117; 18 h, 37 °C, 25% MHB2): 64 µg/mL
COc1ccc2ccc(O)c(/C=N/[C@H]3CCCC[C@H]3/N=C/c3c(O)cccc3OC)c2c1 — MIC (microbial growth, broth dilution; clinical isolate): > 40 µM
CC[C@H]1OC(=O)[C@H](C)[C@@H](OC(=O)Cc2ccc3c(c2)OCO3)[C@H](C)[C@@H](O[C@@H]2O[C@H](C)C[C@H](N(C)C)[C@H]2O)[C@](C)(OC)C[C@@H](C)C(=O)[C@H](C)[C@@H](O)[C@]1(C)O — MIC (microbial growth; ATCC27853): > 32 µg/mL
COc1ccc2ccc(O)c(/C=N/[C@H]3CCCC[C@H]3/N=C/c3cc(C(C)(C)C)ccc3O)c2c1 — MIC (microbial growth, broth dilution): > 40 µM
COc1c(NC(=O)c2ccc(NC(=O)[C@H](Cc3c[nH]nn3)NC(=O)c3ccc(NC(=O)/C(C)=C/c4ccc(O)cc4)cc3)cc2)ccc(C(=O)Nc2ccc(C(=O)O)cc2)c1O — MIC (broth microdilution; ciprofloxacin-sensitive): 4 µg/mL
CCCCCC[N+](C)(C)CCCCCCCCOc1cc(OCCCCCCCC[N+](C)(C)CCCCCC)cc(OCCCCCCCC[N+](C)(C)CCCCCC)c1.[Br-].[Br-].[Br-] — MIC (PAO1): 2 µM
CC[C@H]1OC(=O)[C@H](C)[C@@H](OC(=O)Cc2cccc([N+](=O)[O-])c2)[C@H](C)[C@@H](O[C@@H]2O[C@H](C)C[C@H](N(C)C)[C@H]2O)[C@](C)(OC)C[C@@H](C)C(=O)[C@H](C)[C@@H](O)[C@]1(C)O — MIC (microbial growth; ATCC27853): > 32 µg/mL
C=CCO/N=C(\C(=O)N[C@@H]1C(=O)N(S(=O)(=O)O)[C@H]1C)c1csc(N)n1 — MIC (microbial growth, agar dilution; PAO1): 64 µg/mL
CC[C@H]1OC(=O)[C@H](C)C(=O)[C@H](C)[C@@H](O[C@@H]2O[C@H](C)C[C@H](N(C)C)[C@H]2O)[C@](C)(OC)C[C@@H](C)C(=O)[C@H](C)[C@H]2N(CCCCn3cnc(-c4cccnc4)c3)C(=O)O[C@]12C — MIC (PAO397, five efflux pumps deleted): > 32 µg/mL
CO[C@H]1O[C@H](COC(c2ccccc2)(c2ccccc2)c2ccccc2)[C@@H](OS(=O)(=O)c2ccccc2)[C@H](OS(=O)(=O)c2ccccc2)[C@H]1OS(=O)(=O)c1ccccc1 — MIC (microbial growth, broth dilution): 0.25 µg/mL
COc1cc(C(=O)Nc2ccc(C(=O)O)cc2)ccc1NC(=O)c1ccc(NC(=O)[C@H](Cc2c[nH]nn2)NC(=O)c2ccc(NC(=O)/C(C)=C/c3ccc(O)cc3)cc2)cc1 — MIC (broth microdilution; ciprofloxacin-sensitive): 32 µg/mL
CCCCCCCC[N+](C)(C)CCCCCCCCCCOc1cc(OCCCCCCCCCC[N+](C)(C)CCCCCCCC)cc(OCCCCCCCCCC[N+](C)(C)CCCCCCCC)c1.[Br-].[Br-].[Br-] — MIC (PAO1): 32 µM
COc1ccc2ccc(O)c(/C=N/[C@H]3CCCC[C@H]3/N=C/c3ccc(F)cc3O)c2c1 — MIC (microbial growth, broth dilution): > 40 µM
CC[C@H]1OC(=O)[C@H](C)[C@@H](OC(=O)Cc2ccccc2[N+](=O)[O-])[C@H](C)[C@@H](O[C@@H]2O[C@H](C)C[C@H](N(C)C)[C@H]2O)[C@](C)(OC)C[C@@H](C)C(=O)[C@H](C)[C@@H](O)[C@]1(C)O — MIC (PAO397, five efflux pumps deleted): 32 µg/mL
CN[C@H](CC(C)C)C(=O)N[C@H]1C(=O)N[C@@H](CC(N)=O)C(=O)N[C@H]2C(=O)N[C@H]3C(=O)N[C@H](C(=O)N[C@H](C(=O)O)c4cc(O)cc(O)c4-c4cc3ccc4O)[C@H](O)c3ccc(c(Cl)c3)Oc3cc2cc(c3O[C@@H]2O[C@H](CO)[C@@H](O)[C@H](O)[C@H]2O[C@H]2C[C@](C)(NCc3ccc(OCc4cn(CCCCC(=O)N[C@H](C(=O)N[C@@H](CCN)C(=O)N[C@H]5CCNC(=O)[C@H]([C@@H](C)O)NC(=O)[C@H](CCN)NC(=O)[C@H](CCN)NC(=O)[C@H](CC(C)C)NC(=O)[C@@H](CC(C)C)NC(=O)[C@H](CCN)NC5=O)[C@@H](C)O)nn4)c(OC)c3)[C@H](O)[C@H](C)O2)Oc2ccc(cc2Cl)[C@H]1O — MIC (broth microdilution; ATCC 27853, cation-adjusted Mueller-Hinton broth; 18 to 20 h, 37 °C, 0.002% polysorbate 80): 16 µg/mL
COc1ccc(/C=N/[C@@H]2CCCC[C@@H]2/N=C/c2c(O)ccc3ccc(OC)cc23)c(O)c1 — MIC (microbial growth, broth dilution): > 40 µM
C#CCO/N=C(\C(=O)N[C@@H]1C(=O)N(S(=O)(=O)O)[C@H]1C)c1csc(N)n1 — MIC (microbial growth, agar dilution; ATCC27): 32 µg/mL
COc1c(NC(=O)c2ccc(NC(=O)[C@H](Cc3c[nH]nn3)NC(=O)c3ccc(NC(=O)/C(C)=C/c4ccc(O)cc4)cc3)cc2)ccc(C(=O)Nc2ccc(C(=O)O)c(O)c2)c1O — MIC (broth microdilution; ciprofloxacin-resistant): 32 µg/mL
C#CCO/N=C(\C(=O)N[C@@H]1C(=O)N(OS(=O)(=O)O)C1(C)C)c1nsc(N)n1 — MIC (agar dilution; PAO1): > 64 µg/mL
CN[C@H](CC(C)C)C(=O)N[C@H]1C(=O)N[C@@H](CC(N)=O)C(=O)N[C@H]2C(=O)N[C@H]3C(=O)N[C@H](C(=O)N[C@H](C(=O)O)c4cc(O)cc(O)c4-c4cc3ccc4O)[C@H](O)c3ccc(c(Cl)c3)Oc3cc2cc(c3O[C@@H]2O[C@H](CO)[C@@H](O)[C@H](O)[C@H]2O[C@H]2C[C@](C)(N)[C@H](O)[C@H](C)O2)Oc2ccc(cc2Cl)[C@H]1O — MIC (microbial growth, broth dilution; PAO1): 64 µM
N=C(N)NCCC[C@@H]1NC(=O)[C@H](CCCNC(=N)N)NC(=O)[C@@H](CCCNC(=N)N)NC(=O)[C@@H](CCCNC(=N)N)NC(=O)[C@@H](C(c2ccccc2)c2ccccc2)NC(=O)[C@H](Cc2c[nH]c3ccccc23)NC(=O)[C@@H](C(c2ccccc2)c2ccccc2)NC1=O — MIC (ATCC 27853): 64 µg/mL
CCCCCCn1cc[n+](CCCCCCOc2cc(OCCCCCC[n+]3ccn(CCCCCC)c3)cc(OCCCCCC[n+]3ccn(CCCCCC)c3)c2)c1.[Br-].[Br-].[Br-] — MIC (PAO1): 4 µM
CO[C@@H]1[C@@H](OC(N)=O)[C@@H](O)[C@H](Oc2ccc3c(O)c(NC(=O)c4ccc(O)c(CC=C(C)C)c4)c(=O)oc3c2C)OC1(C)C — MIC (microbial growth, broth dilution): 64 µg/mL
CC1(C)C(NC(=O)C(=NOC2(C(=O)O)CC2)c2csc(N)n2)C(=O)N1OS(=O)(=O)O (stereo not drawn) — MIC (agar dilution; ATCC 27853): 8 µg/mL
CCCCCC(=O)Oc1c(C)c(OC)c2c(c1C)OC(=O)[C@@H](CCCC)[C@]2(O)/C=C/c1ccccc1 (relative stereo) — MIC (microbial growth, broth dilution; ATCC27853): 5000 µg/mL
CC1(C)[C@H](NC(=O)/C(=N\OC2(C(=O)O)CC2)c2nsc(N)n2)C(=O)N1OS(=O)(=O)O — MIC (agar dilution; PAO1): 8 µg/mL
CCCCCC[N+](C)(C)CCCCCCCCCCOc1cc(OCCCCCCCCCC[N+](C)(C)CCCCCC)cc(OCCCCCCCCCC[N+](C)(C)CCCCCC)c1.[Br-].[Br-].[Br-] — MIC (PAO1): 8 µM
CC(C)C[C@@H]1NC(=O)[C@@H](CC(C)C)NC(=O)[C@H](CCN)NC(=O)[C@@H](NC(=O)[C@H](CCN)NC(=O)[C@@H](N)[C@@H](C)O)CCNC(=O)[C@H]([C@@H](C)O)NC(=O)[C@H](CCN)NC(=O)[C@H](CCN)NC1=O — MIC (broth microdilution; ATCC 27853, cation-adjusted Mueller-Hinton broth): > 138 µM
C/C(=C\c1ccc(O)cc1)C(=O)Nc1ccc(C(=O)N[C@@H](Cc2c[nH]nn2)C(=O)Nc2ccc(C(=O)Nc3ccc(C(=O)Nc4ccc(C(=O)O)cc4)cc3)cc2)cc1 — MIC (broth microdilution; ciprofloxacin-sensitive): 32 µg/mL
COc1c(C)c(OS(=O)(=O)c2ccccc2)c(C)c(O)c1C(=O)/C=C/c1ccccc1 — MIC (microbial growth, broth dilution; ATCC27853): 5000 µg/mL
CCn1cc(C(=O)O)c(=O)c2cc(F)c(N3CCNCC3)cc21 — MIC (broth microdilution; pyocyanin non-producing): 0.06 µg/mL
CN[C@H](CC(C)C)C(=O)N[C@H]1C(=O)N[C@@H](CC(N)=O)C(=O)N[C@H]2C(=O)N[C@H]3C(=O)N[C@H](C(=O)N[C@H](C(=O)NCC(N)=O)c4cc(O)cc(O)c4-c4cc3ccc4O)[C@H](O)c3ccc(c(Cl)c3)Oc3cc2cc(c3O[C@@H]2O[C@H](CO)[C@@H](O)[C@H](O)[C@H]2O[C@H]2C[C@](C)(NCc3ccc(OCc4cn(CC(=O)N[C@H](C(=O)N[C@@H](CCN)C(=O)N[C@H]5CCNC(=O)[C@H]([C@@H](C)O)NC(=O)[C@H](CCN)NC(=O)[C@H](CCN)NC(=O)[C@H](CC(C)C)NC(=O)[C@@H](CC(C)C)NC(=O)[C@H](CCN)NC5=O)[C@@H](C)O)nn4)c(OC)c3)[C@H](O)[C@H](C)O2)Oc2ccc(cc2Cl)[C@H]1O — MIC (broth microdilution; ATCC 27853, cation-adjusted Mueller-Hinton broth; 18 to 20 h, 37 °C, 0.002% polysorbate 80): 16 µg/mL
polymyxin B — MIC (broth microdilution; PAO1 wild type): 2 µg/mL
CC[C@H]1OC(=O)[C@H](C)[C@@H](OC(=O)Cc2ccc(C(F)(F)F)cc2)[C@H](C)[C@@H](O[C@@H]2O[C@H](C)C[C@H](N(C)C)[C@H]2O)[C@](C)(OC)C[C@@H](C)C(=O)[C@H](C)[C@@H](O)[C@]1(C)O — MIC (microbial growth; ATCC27853): > 32 µg/mL
Cc1cc(O)c(=O)c(O)cc1C(=O)C1CC1 — MIC (broth microdilution; ATCC 27853, CAMHB; 16 to 24 h, ≥80% growth inhibition): > 71.4 µM

For quick reference, copied from above:
CC[C@H]1OC(=O)[C@H](C)[C@@H](OC(=O)Cc2ccccc2[N+](=O)[O-])[C@H](C)[C@@H](O[C@@H]2O[C@H](C)C[C@H](N(C)C)[C@H]2O)[C@](C)(OC)C[C@@H](C)C(=O)[C@H](C)[C@@H](O)[C@]1(C)O — MIC (PAO397, five efflux pumps deleted): 32 µg/mL
CC[C@H]1OC(=O)[C@H](C)[C@@H](OC(=O)Cc2ccc(C(F)(F)F)cc2)[C@H](C)[C@@H](O[C@@H]2O[C@H](C)C[C@H](N(C)C)[C@H]2O)[C@](C)(OC)C[C@@H](C)C(=O)[C@H](C)[C@@H](O)[C@]1(C)O — MIC (microbial growth; ATCC27853): > 32 µg/mL
CCCCCC[N+](C)(C)CCCCCCCCCCOc1cc(OCCCCCCCCCC[N+](C)(C)CCCCCC)cc(OCCCCCCCCCC[N+](C)(C)CCCCCC)c1.[Br-].[Br-].[Br-] — MIC (PAO1): 8 µM
CC[C@H](C)[C@H](NC(=O)[C@@H](CCCNC(=N)N)NC(=O)[C@H](CCCNC(=N)N)NC(=O)[C@@H]1CCCN1C(=O)[C@@H]1CCCN1C(=O)[C@H](CCCCN)NC(=O)[C@@H]1CCCN1C(=O)[C@H](CCCNC(=N)N)NC(=O)[C@@H]1CCCN1C(=O)[C@H](CC(C)C)NC(=O)[C@H](Cc1ccc(O)cc1)NC(=O)[C@@H]1CCCN1C(=O)[C@@H]1CCCN1C(=O)[C@H](CCCCN)NC(=O)[C@H](CC(=O)O)NC(=O)[C@@H](N)C(C)C)C(=O)N[C@@H](Cc1ccc(O)cc1)C(=O)N[C@@H](CC(N)=O)C(=O)N[C@H](CCCNC(=N)N)C(N)=O — MIC (broth microdilution; DSM 1117; 18 h, 37 °C, 25% MHB2): 64 µg/mL
CCCCCC[N+](C)(C)CCCCCCCCOc1cc(OCCCCCCCC[N+](C)(C)CCCCCC)cc(OCCCCCCCC[N+](C)(C)CCCCCC)c1.[Br-].[Br-].[Br-] — MIC (PAO1): 2 µM
